# Published values from different studies.
# Lines come from different studies, so protocols differ. ± gives the spread as reported.
# Chain of UniProt P41145 (whole entry, looked up): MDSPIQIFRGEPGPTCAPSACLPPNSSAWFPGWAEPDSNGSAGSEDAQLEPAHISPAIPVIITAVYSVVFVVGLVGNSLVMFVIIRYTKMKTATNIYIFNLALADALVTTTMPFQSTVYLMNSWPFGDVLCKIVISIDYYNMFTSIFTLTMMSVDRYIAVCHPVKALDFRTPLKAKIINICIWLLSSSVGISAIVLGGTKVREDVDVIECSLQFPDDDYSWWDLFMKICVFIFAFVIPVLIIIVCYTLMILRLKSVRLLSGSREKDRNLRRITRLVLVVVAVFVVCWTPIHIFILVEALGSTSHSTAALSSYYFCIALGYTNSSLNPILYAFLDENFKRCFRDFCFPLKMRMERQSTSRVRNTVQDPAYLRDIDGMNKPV
Substance,target or system,test,test system,conditions,how to read,measurement,value
Cc1cc(/C=C/C#N)cc(C)c1-n1cnc2cnc(Nc3ccc(C#N)cc3)nc21,HIV-1,"viral replication, single-round infection",RT mutant L100I,,,EC50,0.6 ± 0.02 nM
CCCCCCCCCCCCCCCC(=O)N[C@@H](CCC(=O)NCCOCCOCCC(=O)NCCOCCOCCC(=O)NCCCC[C@H](NC(=O)[C@H](CC(=O)O)NC(=O)[C@H](CC(C)C)NC(=O)[C@H](Cc1ccc(O)cc1)NC(=O)[C@H](CCCCN)NC(=O)[C@H](CO)NC(=O)[C@H](Cc1ccc(O)cc1)NC(=O)[C@H](CC(=O)O)NC(=O)[C@H](CO)NC(=O)[C@@H](NC(=O)[C@H](Cc1ccccc1)NC(=O)[C@@H](NC(=O)CNC(=O)[C@H](CCC(N)=O)NC(=O)[C@@H](CO)NC(=O)[C@@H](N)Cc1c[nH]cn1)[C@@H](C)O)[C@@H](C)O)C(=O)N[C@@H](CCCNC(=N)N)C(=O)N[C@@H](CCCNC(=N)N)C(=O)N[C@@H](C)C(=O)N[C@@H](CCC(N)=O)C(=O)N[C@@H](CC(=O)O)C(=O)N[C@@H](Cc1ccccc1)C(=O)N[C@H](C(=O)N[C@@H](CCC(N)=O)C(=O)N[C@@H](Cc1c[nH]c2ccccc12)C(=O)N[C@@H](CC(C)C)C(=O)N[C@@H](CC(C)C)C(=O)N[C@@H](CC(N)=O)C(=O)N[C@H](C(=O)NCC(=O)NCC(=O)N1CCC[C@H]1C(=O)N[C@@H](CO)C(=O)N[C@@H](CO)C(=O)NCC(=O)N[C@@H](C)C(=O)N1CCC[C@H]1C(=O)N1CCC[C@H]1C(=O)N1CCC[C@H]1C(=O)N[C@@H](CO)C(N)=O)[C@@H](C)O)C(C)C)C(=O)O,,,"rhesus monkey, female","subcutaneous, 60 µg/kg once daily, 28 days",,total bilirubin,5.4 ± 2.1 µmol/L
ivermectin,human adenovirus C5,reporter gene,A549,"5 µM, 72 h, added: digitoxin",reference: DMSO control,viral replication,78.8 ± 9.17%
CC(C)n1ccn2cc(C(=O)NCc3ccc(F)cc3F)c(=O)c(O)c2c1=O,human immunodeficiency virus 1,single-round vector infection,integrase S230N,,,EC50,4.8 ± 0.2 nM
CC[C@H](C)[C@H](NC(=O)[C@H](CCCN)NC(=O)[C@H](CC(=O)O)NC(=O)[C@H](CC(C)C)NC(=O)C(C)(CC(C)C)NC(=O)[C@@H](NC(=O)[C@H](CO)NC(=O)[C@H](Cc1ccc(O)cc1)NC(=O)[C@H](CC(=O)O)NC(=O)[C@H](CO)NC(=O)[C@@H](NC(=O)[C@H](Cc1ccccc1)NC(=O)[C@@H](NC(=O)CNC(=O)[C@H](CCC(=O)O)NC(=O)C(C)(C)NC(=O)[C@@H](N)Cc1ccc(O)cc1)[C@@H](C)O)[C@@H](C)CC)[C@@H](C)CC)C(=O)N[C@@H](Cc1c[nH]cn1)C(=O)N[C@@H](CCC(N)=O)C(=O)NC(C)(C)C(=O)N[C@@H](CC(=O)O)C(=O)N[C@@H](Cc1ccccc1)C(=O)N[C@H](C(=O)N[C@@H](CCC(=O)O)C(=O)N[C@@H](Cc1ccc(O)cc1)C(=O)N[C@@H](CCCCNC(=O)COCCOCCNC(=O)COCCOCCNC(=O)CC[C@H](NC(=O)CCCCCCCCCCCCCCCCCCC(=O)O)C(=O)O)C(=O)N[C@@H](CC(C)C)C(=O)N[C@@H](CCC(=O)O)C(=O)NCC(=O)NCC(=O)N1CCC[C@H]1C(=O)N[C@@H](CO)C(=O)N[C@@H](CO)C(=O)NCC(=O)N[C@@H](C)C(=O)N1CCC[C@H]1C(=O)N1CCC[C@H]1C(=O)N1CCC[C@H]1C(=O)N[C@@H](CO)C(N)=O)C(C)C (stereo partly shown),,,type 2 diabetes patients,"subcutaneous, 25 mg, single ascending dose",,Tmax,24 h
Nc1ncnc2c1ncn2C1CCC(OC(C(=O)O)P(=O)(O)O)C1 (racemic),HIV-1 reverse transcriptase K65R,"enzyme activity, inhibitor",,"added: poly(rU)·oligo(dA), [3H]dATP",reference: mutant over wild type,fold resistance,0.8 fold
CCCCCCCCCCCCCCCC(=O)N[C@@H](CCC(=O)NCCCC[C@H](NC(=O)[C@H](CC(=O)O)NC(=O)[C@H](CO)NC(=O)[C@@H](NC(=O)[C@H](Cc1ccccc1)NC(=O)[C@@H](NC(=O)CNC(=O)[C@H](CCC(N)=O)NC(=O)[C@H](C)NC(=O)[C@@H](Cc1ccc(O)cc1)NC(C)=O)[C@@H](C)O)[C@@H](C)O)C(=O)N[C@@H](CO)C(=O)N[C@@H](CCCCN)C(=O)N[C@@H](Cc1ccc(O)cc1)C(=O)N[C@@H](CC(C)C)C(=O)N[C@@H](CC(=O)O)C(=O)N[C@@H](CCC(=O)O)C(=O)N[C@@H](CCCNC(=N)N)C(=O)N[C@@H](C)C(=O)N[C@@H](C)C(=O)N[C@@H](CCC(N)=O)C(=O)N[C@@H](CC(=O)O)C(=O)N[C@@H](Cc1ccccc1)C(=O)N[C@H](C(=O)N[C@@H](CCC(N)=O)C(=O)N[C@@H](Cc1c[nH]c2ccccc12)C(=O)N[C@@H](CC(C)C)C(=O)N[C@@H](CC(C)C)C(=O)N[C@@H](CCC(=O)O)C(=O)NCC(=O)NCC(=O)N1CCC[C@H]1C(=O)N[C@@H](CO)C(=O)N[C@@H](CO)C(=O)NCC(=O)N[C@@H](C)C(=O)N1CCC[C@H]1C(=O)N1CCC[C@H]1C(=O)N1CCC[C@H]1C(=O)N[C@@H](CO)C(N)=O)C(C)C)C(=O)O,,,"male cynomolgus monkey, plasma","subcutaneous, 0.0211 mg/kg",,Tmax,7 h
COCCCCCCN1CCn2cc(C(=O)NCc3ccc(F)cc3F)c(=O)c(O)c2C1=O,human immunodeficiency virus 1,single-round vector infection,integrase R263K,,,EC50,9.4 ± 1.4 nM
CC[C@H](C)[C@H](NC(=O)[C@H](CCCCN)NC(=O)[C@H](CCCCN)NC(=O)[C@H](CC(C)C)NC(=O)[C@H](Cc1c[nH]c2ccccc12)NC(=O)CN)C(=O)NCC(=O)N[C@@H](CCCCN)C(=O)N[C@@H](CCCCN)C(=O)N[C@H](C(=O)N[C@@H](CCC(=O)O)C(=O)N[C@@H](CCCNC(=N)N)C(=O)N[C@H](C(=O)NCC(=O)N[C@@H](CCC(N)=O)C(=O)N[C@@H](Cc1c[nH]cn1)C(=O)N[C@H](C(=O)N[C@@H](CCCNC(=N)N)C(=O)N[C@@H](CC(=O)O)C(=O)N[C@@H](C)C(=O)N[C@H](C(=O)N[C@H](C(=O)N[C@@H](CCC(N)=O)C(=O)N[C@H](C(=O)N[C@H](C(=O)NCC(=O)N[C@H](C(=O)N[C@@H](C)C(=O)N[C@@H](CCC(N)=O)C(=O)N[C@@H](CCC(N)=O)C(=O)N[C@@H](C)C(=O)N[C@@H](C)C(=O)N[C@@H](CC(N)=O)C(=O)N[C@H](C(=O)N[C@@H](C)C(=O)N[C@@H](C)C(=O)N[C@H](C(=O)N[C@@H](CC(C)C)C(=O)N[C@@H](CCCCN)C(N)=O)[C@@H](C)O)C(C)C)C(C)C)[C@@H](C)CC)[C@@H](C)O)[C@@H](C)CC)[C@@H](C)O)[C@@H](C)O)C(C)C)[C@@H](C)CC,Klebsiella pneumoniae,,"isolate RKI 93/10, CAMHB",,,MIC,4 µg/mL
Cc1cc(O)cc(C)c1C[C@H](N)C(=O)NCC(=O)NCC(=O)N[C@@H](Cc1ccccc1)C(=O)N[C@H](C(=O)NCC(=O)N[C@@H](C)C(=O)N[C@@H](CCCNC(=N)N)C(=O)N[C@@H](CCCCN)C(=O)N[C@@H](CO)C(=O)N[C@@H](C)C(=O)N[C@@H](CCCNC(=N)N)C(=O)N[C@@H](CCCCN)C(N)=O)[C@@H](C)O,"OPRK1 (Homo sapiens, UniProt P41145)","calcium mobilisation, agonist",CHO with Gαqi5,kappa receptor,,EC50,21.9 nM
C=C(C)C[C@H](OC)[C@H](O)C(=O)N[C@@H](OC)[C@@H]1CC(=O)C(C)(C)[C@@H](C[C@H](O)[C@@H](C)[C@H]2Cc3c(C)c(O)cc(O)c3C(=O)O2)O1,HCT-116,cell growth or viability,,,,IC50,3 nM
Cc1cc(/C=C/C#N)cc(C)c1Nc1nc(Nc2ccc(C#N)cc2)ncc1N,HIV-1,"viral replication, single-round infection",RT mutant D67E,,,EC50,4.5 ± 1.1 nM
COc1c(/C=C/C(=O)c2ccc(O)cc2)ccc(O)c1O,,viral replication,SARS-CoV-2 trVLP system,100 µM,,inhibition,> 90%

# Repeated from above:
Substance,target or system,test,test system,conditions,how to read,measurement,value
CCCCCCCCCCCCCCCC(=O)N[C@@H](CCC(=O)NCCOCCOCCC(=O)NCCOCCOCCC(=O)NCCCC[C@H](NC(=O)[C@H](CC(=O)O)NC(=O)[C@H](CC(C)C)NC(=O)[C@H](Cc1ccc(O)cc1)NC(=O)[C@H](CCCCN)NC(=O)[C@H](CO)NC(=O)[C@H](Cc1ccc(O)cc1)NC(=O)[C@H](CC(=O)O)NC(=O)[C@H](CO)NC(=O)[C@@H](NC(=O)[C@H](Cc1ccccc1)NC(=O)[C@@H](NC(=O)CNC(=O)[C@H](CCC(N)=O)NC(=O)[C@@H](CO)NC(=O)[C@@H](N)Cc1c[nH]cn1)[C@@H](C)O)[C@@H](C)O)C(=O)N[C@@H](CCCNC(=N)N)C(=O)N[C@@H](CCCNC(=N)N)C(=O)N[C@@H](C)C(=O)N[C@@H](CCC(N)=O)C(=O)N[C@@H](CC(=O)O)C(=O)N[C@@H](Cc1ccccc1)C(=O)N[C@H](C(=O)N[C@@H](CCC(N)=O)C(=O)N[C@@H](Cc1c[nH]c2ccccc12)C(=O)N[C@@H](CC(C)C)C(=O)N[C@@H](CC(C)C)C(=O)N[C@@H](CC(N)=O)C(=O)N[C@H](C(=O)NCC(=O)NCC(=O)N1CCC[C@H]1C(=O)N[C@@H](CO)C(=O)N[C@@H](CO)C(=O)NCC(=O)N[C@@H](C)C(=O)N1CCC[C@H]1C(=O)N1CCC[C@H]1C(=O)N1CCC[C@H]1C(=O)N[C@@H](CO)C(N)=O)[C@@H](C)O)C(C)C)C(=O)O,,,"rhesus monkey, female","subcutaneous, 60 µg/kg once daily, 28 days",,total bilirubin,5.4 ± 2.1 µmol/L
Cc1cc(O)cc(C)c1C[C@H](N)C(=O)NCC(=O)NCC(=O)N[C@@H](Cc1ccccc1)C(=O)N[C@H](C(=O)NCC(=O)N[C@@H](C)C(=O)N[C@@H](CCCNC(=N)N)C(=O)N[C@@H](CCCCN)C(=O)N[C@@H](CO)C(=O)N[C@@H](C)C(=O)N[C@@H](CCCNC(=N)N)C(=O)N[C@@H](CCCCN)C(N)=O)[C@@H](C)O,"OPRK1 (Homo sapiens, UniProt P41145)","calcium mobilisation, agonist",CHO with Gαqi5,kappa receptor,,EC50,21.9 nM
